Assay results pooled from the literature.
Each line is one published result; not all experiments were run side by side. ± marks the error that the study gave.
Faah: Fatty-acid amide hydrolase 1 (Faah, Mus musculus, UniProt O08914)
Sequence of UniProt O08914 (whole entry, looked up): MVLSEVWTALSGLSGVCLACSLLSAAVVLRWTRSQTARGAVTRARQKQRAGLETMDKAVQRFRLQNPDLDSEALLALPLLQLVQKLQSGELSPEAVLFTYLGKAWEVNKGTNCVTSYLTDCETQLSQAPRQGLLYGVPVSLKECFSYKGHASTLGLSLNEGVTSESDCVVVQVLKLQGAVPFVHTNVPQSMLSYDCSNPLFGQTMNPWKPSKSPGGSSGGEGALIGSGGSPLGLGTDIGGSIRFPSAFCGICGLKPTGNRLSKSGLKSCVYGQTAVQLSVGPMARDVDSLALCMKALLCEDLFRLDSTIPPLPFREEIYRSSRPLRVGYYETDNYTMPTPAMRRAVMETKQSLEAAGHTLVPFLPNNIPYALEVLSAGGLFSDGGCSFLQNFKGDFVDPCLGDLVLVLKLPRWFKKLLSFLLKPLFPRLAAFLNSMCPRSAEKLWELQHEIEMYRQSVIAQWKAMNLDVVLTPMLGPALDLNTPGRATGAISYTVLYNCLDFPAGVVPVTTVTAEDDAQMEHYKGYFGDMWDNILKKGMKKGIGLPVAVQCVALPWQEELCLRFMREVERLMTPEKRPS
AR: Androgen receptor (AR, Homo sapiens, UniProt P10275)
Sequence of UniProt P10275 (whole entry, looked up): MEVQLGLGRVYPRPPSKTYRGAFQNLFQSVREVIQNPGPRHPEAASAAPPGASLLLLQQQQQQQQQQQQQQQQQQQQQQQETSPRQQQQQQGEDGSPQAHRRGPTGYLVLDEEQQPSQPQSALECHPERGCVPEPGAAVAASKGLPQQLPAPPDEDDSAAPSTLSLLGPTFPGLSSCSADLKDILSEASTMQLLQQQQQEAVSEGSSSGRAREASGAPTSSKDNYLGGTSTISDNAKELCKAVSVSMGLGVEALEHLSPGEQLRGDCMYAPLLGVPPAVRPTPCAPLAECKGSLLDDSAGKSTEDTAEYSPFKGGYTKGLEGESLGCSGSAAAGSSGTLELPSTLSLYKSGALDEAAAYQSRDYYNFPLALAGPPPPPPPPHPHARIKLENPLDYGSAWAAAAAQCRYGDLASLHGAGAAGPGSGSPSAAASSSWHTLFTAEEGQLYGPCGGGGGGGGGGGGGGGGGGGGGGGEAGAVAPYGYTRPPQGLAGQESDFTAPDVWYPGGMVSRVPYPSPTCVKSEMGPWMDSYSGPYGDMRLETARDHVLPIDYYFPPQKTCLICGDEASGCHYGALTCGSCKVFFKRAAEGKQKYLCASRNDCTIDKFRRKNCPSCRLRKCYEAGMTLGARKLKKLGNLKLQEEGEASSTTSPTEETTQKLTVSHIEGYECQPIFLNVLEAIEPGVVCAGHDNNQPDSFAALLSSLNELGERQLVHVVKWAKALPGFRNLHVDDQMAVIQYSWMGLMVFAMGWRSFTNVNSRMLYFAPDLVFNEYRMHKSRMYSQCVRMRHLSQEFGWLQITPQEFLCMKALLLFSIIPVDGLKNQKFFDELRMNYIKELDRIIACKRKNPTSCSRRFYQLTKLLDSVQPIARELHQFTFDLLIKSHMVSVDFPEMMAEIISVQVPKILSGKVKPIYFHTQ
Sequence of UniProt O14746 (whole entry, looked up): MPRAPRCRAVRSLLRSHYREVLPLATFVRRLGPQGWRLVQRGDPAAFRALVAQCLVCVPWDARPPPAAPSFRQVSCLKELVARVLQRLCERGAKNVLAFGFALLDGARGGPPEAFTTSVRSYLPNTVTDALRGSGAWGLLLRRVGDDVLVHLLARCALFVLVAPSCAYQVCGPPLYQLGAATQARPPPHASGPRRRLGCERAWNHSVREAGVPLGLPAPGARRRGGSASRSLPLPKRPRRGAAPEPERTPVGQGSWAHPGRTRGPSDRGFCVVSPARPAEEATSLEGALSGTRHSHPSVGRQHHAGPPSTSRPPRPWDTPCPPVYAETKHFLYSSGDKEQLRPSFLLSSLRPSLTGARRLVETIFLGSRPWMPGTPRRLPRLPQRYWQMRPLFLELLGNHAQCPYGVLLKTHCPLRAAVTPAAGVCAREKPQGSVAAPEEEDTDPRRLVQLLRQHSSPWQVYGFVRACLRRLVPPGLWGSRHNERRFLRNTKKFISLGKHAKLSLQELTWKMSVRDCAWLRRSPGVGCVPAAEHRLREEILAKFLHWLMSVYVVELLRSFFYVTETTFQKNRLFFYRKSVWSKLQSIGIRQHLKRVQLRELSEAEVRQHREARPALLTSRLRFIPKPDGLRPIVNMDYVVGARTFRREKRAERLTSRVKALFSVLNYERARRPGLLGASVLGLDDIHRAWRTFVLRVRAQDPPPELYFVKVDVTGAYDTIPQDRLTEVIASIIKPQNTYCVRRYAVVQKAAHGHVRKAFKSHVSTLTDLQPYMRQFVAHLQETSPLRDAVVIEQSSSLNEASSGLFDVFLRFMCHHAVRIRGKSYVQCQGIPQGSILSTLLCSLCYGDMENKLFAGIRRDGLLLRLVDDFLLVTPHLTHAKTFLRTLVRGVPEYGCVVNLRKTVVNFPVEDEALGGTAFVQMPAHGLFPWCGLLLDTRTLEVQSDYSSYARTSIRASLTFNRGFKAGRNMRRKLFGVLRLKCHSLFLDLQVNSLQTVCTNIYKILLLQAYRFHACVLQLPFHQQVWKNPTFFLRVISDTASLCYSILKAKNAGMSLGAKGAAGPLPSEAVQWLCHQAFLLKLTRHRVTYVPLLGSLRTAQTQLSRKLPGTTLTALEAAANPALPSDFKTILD
Sequence of UniProt Q08345 (whole entry, looked up): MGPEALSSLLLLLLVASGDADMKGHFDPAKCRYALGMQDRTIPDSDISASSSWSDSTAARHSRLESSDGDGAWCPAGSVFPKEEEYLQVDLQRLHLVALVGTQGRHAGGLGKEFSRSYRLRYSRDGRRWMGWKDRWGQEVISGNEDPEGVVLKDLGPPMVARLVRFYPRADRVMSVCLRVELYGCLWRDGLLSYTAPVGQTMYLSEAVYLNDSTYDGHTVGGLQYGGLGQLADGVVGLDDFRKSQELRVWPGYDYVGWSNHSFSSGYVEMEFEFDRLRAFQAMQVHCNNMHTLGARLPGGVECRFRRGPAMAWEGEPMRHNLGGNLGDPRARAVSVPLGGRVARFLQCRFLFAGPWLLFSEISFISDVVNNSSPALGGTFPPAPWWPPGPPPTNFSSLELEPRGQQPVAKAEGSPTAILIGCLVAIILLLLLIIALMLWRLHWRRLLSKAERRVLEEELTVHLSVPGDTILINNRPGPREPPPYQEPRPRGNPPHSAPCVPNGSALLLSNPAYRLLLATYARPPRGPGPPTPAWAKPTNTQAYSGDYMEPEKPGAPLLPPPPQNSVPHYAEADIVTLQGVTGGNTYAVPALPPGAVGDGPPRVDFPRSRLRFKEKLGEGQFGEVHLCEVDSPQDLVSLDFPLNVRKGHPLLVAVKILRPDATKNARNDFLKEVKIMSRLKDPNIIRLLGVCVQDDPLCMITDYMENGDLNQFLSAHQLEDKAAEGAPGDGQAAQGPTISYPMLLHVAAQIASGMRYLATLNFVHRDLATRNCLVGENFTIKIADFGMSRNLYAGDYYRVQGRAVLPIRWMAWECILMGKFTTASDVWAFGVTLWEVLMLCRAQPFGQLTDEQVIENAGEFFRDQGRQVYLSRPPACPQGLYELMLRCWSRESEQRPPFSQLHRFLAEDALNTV
Sequence of UniProt Q9GZX7 (whole entry, looked up): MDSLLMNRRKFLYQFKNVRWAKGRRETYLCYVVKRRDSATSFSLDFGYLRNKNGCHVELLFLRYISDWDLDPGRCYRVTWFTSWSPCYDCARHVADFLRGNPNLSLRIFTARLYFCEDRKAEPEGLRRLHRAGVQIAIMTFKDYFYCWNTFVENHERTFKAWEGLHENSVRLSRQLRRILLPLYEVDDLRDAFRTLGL

SMILES | target | test | system | setting | scale | remaining activity [%]
CC1(C)CCN(Cc2ccc(C(=O)NC[C@]3(O)CCCN(c4cc(NCc5ccccc5)ncn4)C3)c(O)c2)CC1 | Epithelial discoidin domain-containing receptor 1 (DDR1, Homo sapiens, UniProt Q08345) | kinase activity, radiometric |  | 10 µM, added: 10 µM ATP |  | 96
COc1ccc2nnn(C(=O)N3COCC3(C)C)c2c1 | Faah | inhibitor | mouse, liver | oral, 0.1 mg/kg, 8 h after dose | reference: control | 39 ± 7
CCSc1nc2c([nH]1)c(=O)n(C)c(=O)n2C | AR | reporter gene, antagonist, PSA-luciferase | HeLa-A6 | 10 µM, 24 h, added: 5 nM dihydrotestosterone | reference: maximal activity | 115
COc1cc2nnn(C(=O)N3COCC3(C)C)c2cc1OC | Faah | inhibitor | mouse, liver | oral, 0.1 mg/kg, 8 h after dose | reference: control | 8 ± 4
CN(CC(=O)c1ccc2[nH]c(=O)[nH]c2c1)Cc1ccco1 | Single-stranded DNA cytosine deaminase (AICDA, Homo sapiens, UniProt Q9GZX7) | deaminase activity, inhibitor, alkaline cleavage | purified GST-AID | 500 to 840 µM, pH 7.2, 37 °C, DMSO 100% |  | 17.4
NC(CNC(CNC(CC(=O)O)C(=O)O)C(=O)O)C(=O)O (centres unmarked) | angiotensin-converting enzyme, rabbit |  |  | 500 µM, 60 min, Zn-depleted buffer |  | 46.9 ± 8.9
CCCCCCCCSc1nc2c([nH]1)c(=O)n(C)c(=O)n2C | AR | reporter gene, antagonist, PSA-luciferase | HeLa-A6 | 10 µM, 24 h, added: 5 nM dihydrotestosterone | reference: maximal activity | 101
CC(C)c1cc2ccc3ccccc3c2oc1=O | Tyrosine-protein kinase SYK (SYK, Homo sapiens, UniProt P43405) | enzyme activity, inhibitor, ADP-Glo |  | 5 µM |  | 86 ± 3.7
[N-]=[N+]=N[C@H]1C[C@H](n2cnc3c(N)ncnc32)O[C@@H]1COP(=O)(O)OP(=O)(O)OP(=O)(O)O | Telomerase reverse transcriptase (TERT, Homo sapiens, UniProt O14746) | enzyme activity, stretch PCR |  | 10 µM, added: competing dNTP 10 µM |  | 85
O=C(Nc1ccc(OC(F)(F)F)cc1)N1CCC(Cc2cccc(Oc3ccc(C(F)(F)F)cn3)c2)CC1 | Faah |  | mice, brain | intraperitoneal, 10 mg/kg, 4 h, vehicle DMSO | reference: control | 22 ± 15
CCCCSc1nc2c([nH]1)c(=S)n(C)c(=S)n2C | AR | reporter gene, antagonist, PSA-luciferase | HeLa-A6 | 10 µM, 24 h, added: 5 nM dihydrotestosterone | reference: maximal activity | 76

Repeated from above:
SMILES | target | test | system | setting | scale | remaining activity [%]
COc1cc2nnn(C(=O)N3COCC3(C)C)c2cc1OC | Faah | inhibitor | mouse, liver | oral, 0.1 mg/kg, 8 h after dose | reference: control | 8 ± 4
